Published values of several laboratories.

CC1(C)S[C@@H]2[C@H](NC(=O)[C@H](NC(=O)C3=C(O)C(c4ccccc4F)NC3=O)c3ccccc3)C(=O)N2[C@H]1C(=O)O (some centres unmarked) — MIC (Escherichia coli; broth microdilution; isolate IU, CTX-M-14, TEM-1; no clavulanic acid): > 200 µg/mL
CC[C@H](C)[C@H](NC(=O)[C@H](CCCNC(=N)N)NC(=O)[C@H](CO)NC(=O)[C@H](Cc1ccc(O)cc1)NC(=O)[C@@H](NC(=O)[C@@H](NC(=O)[C@H](C)NC(=O)CNC(=O)[C@H](CCCCN)NC(=O)[C@H](CCCCN)NC(=O)CCNC(=O)CCCCCNC(=O)[C@H](CCCNC(=N)N)NC(=O)CCCCCNC(=O)[C@H](CCCNC(=N)N)NC(=O)[C@H](CCCNC(=N)N)NC(=O)CCCCCNC(=O)[C@H](CCCNC(=N)N)NC(=O)[C@H](CCCNC(=N)N)NC(=O)CCCCCNC(=O)[C@H](CCCNC(=N)N)NC(=O)[C@H](CCCNC(=N)N)NC(=O)CCCCCNC(=O)[C@@H](N)CCCNC(=N)N)C(C)C)[C@@H](C)O)C(=O)N[C@@H](CO)C(=O)NCC(=O)N[C@@H](CCC(N)=O)C(=O)N[C@@H](Cc1ccc(O)cc1)C(=O)N[C@@H](CCCCN)C(=O)O — MIC (Escherichia coli; ATCC 25922, Mueller-Hinton broth; with: MgCl2 1 mM): 12 µM
CC(C)CCCCCCCCC/C=C/C(=O)N[C@@H](CC(N)=O)C(=O)N[C@H]1CNC(=O)[C@@H]2CCCN2C(=O)[C@H](C(C)C)NC(=O)[C@@H](CN)NC(=O)CNC(=O)[C@H](CC(=O)O)NC(=O)CNC(=O)[C@H](CC(=O)O)NC(=O)[C@H](CC(=O)O)NC(=O)[C@H]2CCCCN2C1=O — MIC (Staphylococcus simulans; broth microdilution; 22, Mueller-Hinton broth, Mg2+ 10 mg/L; 16 h, 30 °C, with: Ca2+ 1.0 mM): 4 µg/mL
CCCCCCn1cc[n+](CCCCCCOc2cc(OCCCCCC[n+]3ccn(CCCCCC)c3)cc(OCCCCCC[n+]3ccn(CCCCCC)c3)c2)c1.[Br-].[Br-].[Br-] — MIC (eight bacterial strains): ≤ 2 µM
CCCCCCCCCC(=O)NCCCC[C@H](NC(=O)CCCCCCCCC)C(=O)N[C@@H](CCCCNC(=O)CCCCCCCCC)C(=O)NCC(=O)NCC(=O)NCC(=O)N[C@@H](CS)C(=O)N[C@@H](CCCNC(=N)N)C(=O)N[C@@H](CCCCN)C(=O)N1CCC[C@H]1C(=O)N[C@@H](CS)C(=O)N[C@@H](CCCNC(=N)N)C(=O)N[C@@H](CCCCN)C(=O)N1CCC[C@H]1C(N)=O — MIC (Candida albicans; broth microdilution; CGMCC 2.209, RPMI-1640; 48 h, 30 °C): 16 µM
COc1ccc(C2=[N+]([O-])c3ccccc3N3CCCN=C23)cc1 — MIC (Fusobacterium nucleatum): 0.5 to 2 µg/mL
CC[C@H](C)[C@H](NC(=O)[C@H](Cc1c[nH]c2ccccc12)NC(=O)[C@H](Cc1ccc(O)cc1)NC(=O)[C@H](CCCCN)NC(=O)[C@H](CC(C)C)NC(=O)[C@H](CO)NC(=O)[C@@H](N)Cc1ccccc1)C(=O)N[C@@H](CCCNC(=N)N)C(=O)N[C@@H](Cc1ccc(O)cc1)C(=O)N[C@@H](CCCCN)C(=O)N[C@@H](CCCNC(=N)N)C(=O)N[C@@H](CCC(N)=O)C(=O)NCC(=O)N[C@@H](C)C(=O)N[C@@H](C)C(=O)N[C@@H](CCCNC(=N)N)C(=O)N[C@@H](Cc1ccccc1)C(N)=O — MIC (Listeria monocytogenes; broth dilution; KCTC 13064): 100 µM
C#CCNC(=O)[C@H]1NC(=O)[C@H]2NC(=O)[C@H](NC(=O)[C@@H]3NC(=O)[C@H](CC(N)=O)NC(=O)[C@H](NC(=O)[C@@H](CC(C)C)NC)[C@H](O)c4ccc(c(Cl)c4)Oc4cc3cc(c4O[C@@H]3O[C@H](CO)[C@@H](O)[C@H](O)[C@H]3O[C@H]3C[C@](C)(N)[C@H](O)[C@H](C)O3)Oc3ccc(cc3Cl)[C@H]2O)c2ccc(O)c(c2)-c2c(O)cc(O)cc21 — MIC (Staphylococcus simulans; broth microdilution; 22, cation-adjusted Mueller-Hinton broth): 0.168 µM
CCCCCCCC(=O)NCCCC[C@H](NC(=O)CCCCCCC)C(=O)N[C@@H](CCCCNC(=O)CCCCCCC)C(=O)NCC(=O)NCC(=O)NCC(=O)N[C@@H](CS)C(=O)N[C@@H](CCCNC(=N)N)C(=O)N[C@@H](CCCCN)C(=O)N1CCC[C@H]1C(=O)N[C@@H](CS)C(=O)N[C@@H](CCCNC(=N)N)C(=O)N[C@@H](CCCCN)C(=O)N1CCC[C@H]1C(N)=O — MIC (Candida albicans; broth microdilution; 17546, RPMI-1640; 48 h, 30 °C): 8 µM
CC(C)CCCCCCCCC/C=C/C(=O)N[C@@H](CC(=O)O)C(=O)N[C@H]1CNC(=O)[C@@H]2CCCN2C(=O)[C@H](C(C)C)NC(=O)[C@@H](CN)NC(=O)CNC(=O)[C@H](CC(=O)O)NC(=O)CNC(=O)[C@H](CC(=O)O)NC(=O)[C@H](CC(=O)O)NC(=O)[C@H]2CCCCN2C1=O — MIC (Staphylococcus simulans; broth microdilution; 22, Mueller-Hinton broth, Mg2+ 10 mg/L; 16 h, 30 °C, with: Ca2+ 5 mM): 4 µg/mL
CCCCCCCCCCCC(=O)NCCCC[C@H](NC(=O)CCCCCCCCCCC)C(=O)N[C@@H](CCCCNC(=O)CCCCCCCCCCC)C(=O)NCC(=O)NCC(=O)NCC(=O)N[C@@H](CS)C(=O)N[C@@H](CCCNC(=N)N)C(=O)N[C@@H](CCCCN)C(=O)N1CCC[C@H]1C(=O)N[C@@H](CS)C(=O)N[C@@H](CCCNC(=N)N)C(=O)N[C@@H](CCCCN)C(=O)N1CCC[C@H]1C(N)=O — MIC (Candida albicans; broth microdilution; 58288, RPMI-1640; 48 h, 30 °C): > 128 µM
C=C(P(=O)(O)O)P(=O)(O)O — MIC (Candida albicans; microbial growth, broth dilution; SC5314; 24 h): > 128 µg/mL
[O-][N+]1=C(c2ccc(Cl)cc2)C2=NCCCN2c2ccccc21 — MIC (Fusobacterium nucleatum): 0.25 to 1 µg/mL
CCCCCC(=O)NCCCC[C@H](NC(=O)CCCCC)C(=O)N[C@@H](CCCCNC(=O)CCCCC)C(=O)NCC(=O)NCC(=O)NCC(=O)N[C@@H](CS)C(=O)N[C@@H](CCCNC(=N)N)C(=O)N[C@@H](CCCCN)C(=O)N1CCC[C@H]1C(=O)N[C@@H](CS)C(=O)N[C@@H](CCCNC(=N)N)C(=O)N[C@@H](CCCCN)C(=O)N1CCC[C@H]1C(N)=O — MIC (Candida albicans; broth microdilution; SP 3876, RPMI-1640; 48 h, 30 °C): 32 µM

Repeated from above:
CC[C@H](C)[C@H](NC(=O)[C@H](CCCNC(=N)N)NC(=O)[C@H](CO)NC(=O)[C@H](Cc1ccc(O)cc1)NC(=O)[C@@H](NC(=O)[C@@H](NC(=O)[C@H](C)NC(=O)CNC(=O)[C@H](CCCCN)NC(=O)[C@H](CCCCN)NC(=O)CCNC(=O)CCCCCNC(=O)[C@H](CCCNC(=N)N)NC(=O)CCCCCNC(=O)[C@H](CCCNC(=N)N)NC(=O)[C@H](CCCNC(=N)N)NC(=O)CCCCCNC(=O)[C@H](CCCNC(=N)N)NC(=O)[C@H](CCCNC(=N)N)NC(=O)CCCCCNC(=O)[C@H](CCCNC(=N)N)NC(=O)[C@H](CCCNC(=N)N)NC(=O)CCCCCNC(=O)[C@@H](N)CCCNC(=N)N)C(C)C)[C@@H](C)O)C(=O)N[C@@H](CO)C(=O)NCC(=O)N[C@@H](CCC(N)=O)C(=O)N[C@@H](Cc1ccc(O)cc1)C(=O)N[C@@H](CCCCN)C(=O)O — MIC (Escherichia coli; ATCC 25922, Mueller-Hinton broth; with: MgCl2 1 mM): 12 µM
CC1(C)S[C@@H]2[C@H](NC(=O)[C@H](NC(=O)C3=C(O)C(c4ccccc4F)NC3=O)c3ccccc3)C(=O)N2[C@H]1C(=O)O (some centres unmarked) — MIC (Escherichia coli; broth microdilution; isolate IU, CTX-M-14, TEM-1; no clavulanic acid): > 200 µg/mL
